Experimental data pooled from the literature.
Every numbered part comes from another study and shows a few of its results, in no order. Substitutions count along the parent as printed.

Block 1
Target: DDIT3, bZIP domain (human)
Method: DHFR protein complementation
Medium: yeast
Notes: single substitutions, most at no-binding floor
Baseline: wild-type JUN-FOS pair
Direction: higher = stronger binding
Parent: JUN, bZIP domain (human); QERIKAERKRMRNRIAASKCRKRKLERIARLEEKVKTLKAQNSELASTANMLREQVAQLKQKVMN; partner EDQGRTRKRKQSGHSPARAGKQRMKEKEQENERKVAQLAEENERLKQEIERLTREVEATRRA
Variant	binding fitness [natural log]
L52Q	-1.4
A57L	-0.11
E44Q	0.0196
S47Q	0.142
A57P	-1.29
S43I	0.109
L59S	-0.0975
A49R	0.0718
A46L	0.0804
A49E	-0.53
E54L	-0.15
A29F	-0.119
E33N	-0.145
A46I	0.0516
Q55S	-0.258
T37G	-0.0818
I28M	0.0466
L45Q	-0.939
A40K	0.165
V35C	-0.0524
R30H	0.0752
E54T	-0.0709
K34C	-0.041
Q41L	-0.0266
A46H	0.0579

Block 2
Target: CCNE2, cyclin fold, Cln2 fusion (human)
Method: yeast growth competition, sequencing
Medium: yeast
Notes: strong parent motif
Baseline: not given
Direction: higher = stronger binding
Parent: PPP1R3F docking peptide (human); VAPRRVLFADEAL; partner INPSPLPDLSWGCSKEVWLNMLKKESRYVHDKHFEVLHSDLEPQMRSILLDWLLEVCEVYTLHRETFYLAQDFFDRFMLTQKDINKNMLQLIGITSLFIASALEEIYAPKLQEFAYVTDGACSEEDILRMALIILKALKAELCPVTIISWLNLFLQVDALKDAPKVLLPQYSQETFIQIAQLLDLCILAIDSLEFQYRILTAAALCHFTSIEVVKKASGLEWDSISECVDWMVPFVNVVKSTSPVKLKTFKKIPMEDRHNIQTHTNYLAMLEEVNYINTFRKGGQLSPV
Variant	normalised enrichment score
VAPRRVLFADAAL [E11A]	1.83
VAPRRVLFAAEAL [D10A]	1.14
AAPRRVLFADEAL [V1A]	1.94
VAPRKVLLADEAL [R5K F8L]	0.211
VAPRAVAFADEAL [R5A L7A]	-0.268
VAPRRVLLADEAL [F8L]	0.498
VAPRRVAFADEAL [L7A]	0.599
VAPRRVLFADEAA [L13A]	1.38

Block 3
Target: Histone acetyltransferase KAT6A, both winged helices, GST fusion (KAT6A, Homo sapiens, UniProt Q92794, residues 1-181)
Method: protein binding microarray
Molecule type: double-stranded DNA, one strand shown
Medium: in vitro
Concentration: not given
Notes: 8-mer, flanks averaged, mean of 2 arrays, mostly near background
Baseline: not given
Direction: higher = stronger binding
Target sequence (chain): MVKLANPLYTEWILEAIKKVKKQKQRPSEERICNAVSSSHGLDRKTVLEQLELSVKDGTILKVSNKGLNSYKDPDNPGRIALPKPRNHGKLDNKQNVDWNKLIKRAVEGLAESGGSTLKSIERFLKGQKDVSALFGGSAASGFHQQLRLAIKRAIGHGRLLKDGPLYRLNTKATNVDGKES
Strand	E-score
ATTACTAC	-0.0473
GACATTCA	0.0583
GTCCCTGA	-0.239
CCATAGAC	-0.124
CGACATCA	-0.0267
AGGCCACT	-0.0702
TGCCCTAA	-0.146
AGAGCTCC	-0.0512
ATTCATAG	-0.0843
AGGCCAAA	-0.189
ACATTGGA	-0.0104
CTGTCGTA	-0.0587
ACTATTCA	-0.0646
CCCTCGTC	-0.199
ACGCTTCG	0.16
TGAGTCCA	-0.0759

Block 4
Target: ABI1, truncated, D143A, DHFR fusion (Arabidopsis thaliana)
Method: DHFR PCA, deep sequencing
Medium: yeast
Notes: methotrexate growth selection, single substitutions
Added: (+)-ABA 0.032 µM
Baseline: wild-type fitted maximum
Direction: higher = stronger binding
Parent: PYL1, truncated, DHFR fusion (Arabidopsis thaliana); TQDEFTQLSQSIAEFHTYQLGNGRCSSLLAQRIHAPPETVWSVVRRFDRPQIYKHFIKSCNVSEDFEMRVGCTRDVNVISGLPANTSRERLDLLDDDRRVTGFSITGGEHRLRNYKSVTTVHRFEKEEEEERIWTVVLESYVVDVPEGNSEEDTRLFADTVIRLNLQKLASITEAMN; partner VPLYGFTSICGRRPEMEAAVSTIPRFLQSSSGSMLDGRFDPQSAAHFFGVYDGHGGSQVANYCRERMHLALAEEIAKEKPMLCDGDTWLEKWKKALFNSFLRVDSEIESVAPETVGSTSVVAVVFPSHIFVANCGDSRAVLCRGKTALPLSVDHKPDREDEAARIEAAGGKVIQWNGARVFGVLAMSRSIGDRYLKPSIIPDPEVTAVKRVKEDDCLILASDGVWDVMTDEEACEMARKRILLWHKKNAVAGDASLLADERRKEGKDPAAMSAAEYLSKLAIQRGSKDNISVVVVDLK
Variant	relative binding score [%]
L8E	-6.97
V44K	-5.18
I52G	0.891
R49S	12.4
R32M	18.7
T135D	-5.17
G81R	-6.23
N61D	29.3
N22K	45.5
H122S	-0.301
L164Q	1.82
T1A	25.1
N149T	51
A175E	20.4
L28W	1.99
L156V	8.28
R90E	6.35
L112I	-4.8
D159R	-3.38
E4A	15.8
E67C	12.1
V143W	-5.98
T6M	42.1
V43E	0.69
D153P	-5.85

Block 5
Target: RING finger protein unkempt homolog, zinc fingers 1-6, GST-SBP tag (UNK, Homo sapiens, UniProt Q9C0B0, residues 30-357)
Chain of UniProt Q9C0B0 (30-357, looked up): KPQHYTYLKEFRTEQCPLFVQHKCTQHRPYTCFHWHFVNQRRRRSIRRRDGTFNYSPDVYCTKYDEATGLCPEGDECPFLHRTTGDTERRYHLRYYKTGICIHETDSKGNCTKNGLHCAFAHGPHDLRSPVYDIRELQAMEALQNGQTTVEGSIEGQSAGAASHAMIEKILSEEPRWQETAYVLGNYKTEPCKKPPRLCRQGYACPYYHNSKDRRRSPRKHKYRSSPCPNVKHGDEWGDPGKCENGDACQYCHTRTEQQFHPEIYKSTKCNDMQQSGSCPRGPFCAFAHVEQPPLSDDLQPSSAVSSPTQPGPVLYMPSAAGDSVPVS
Method: RNA Bind-n-Seq
Molecule type: RNA
Medium: in vitro
Concentration: not given
Notes: RNA with constant flanks, human and mouse sites, ends assumed
Baseline: input RNA pool
Direction: higher = stronger binding
Strand	bound/input enrichment
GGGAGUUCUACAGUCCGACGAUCUCAAGCUGUGCUGUAAAUAUCAUUUAGACCUAUUGAGAAUUAACAGCAAAUCUGAGCUACUUUAGUGUUACCAACUAUUAGUCUGCUGACUGUUUCUAUAACAAAAUACCUGAGACAAUCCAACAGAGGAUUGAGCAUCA	1.3 ratio
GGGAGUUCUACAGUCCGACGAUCAAGAAAACAUACCAAUAUUGUUGCACAGACUAUUCCUCAGAUGUUAGCAAUGAUGGUUGAUUUGGAAGAAGAUGAGGACUGGGCAAAUGCAGAUGAACUAGAAGAUGAUGAUUUUGACAGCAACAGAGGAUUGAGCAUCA	0.478 ratio
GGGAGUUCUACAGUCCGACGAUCUUUUGAAAACGAACUUCUCUAGCUACACAGAAGUAACAAAAUAUGUUAGUCAGUUUUGUAUUUAGAAAUGUAUUGGUAGCAGGGAUGUUUUCAUAAUUUUCAGAGAAUAUGCAUUCUUCACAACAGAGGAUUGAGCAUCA	0.561 ratio
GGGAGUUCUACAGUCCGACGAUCUUAAUGUUUAAGUUCAAAUUAAUGUAGAGCCCUCCCUCUUUUGGGGGGUAAACUUUUUAAAUUAGGACUUACAGGAGAUCAAGAAGGAACUUUCAAAGACGGGUGAGGAGAAGUACAUAGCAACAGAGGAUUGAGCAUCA	0.822 ratio
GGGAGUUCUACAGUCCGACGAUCUUUACUGUAGUGUAUCUUGUACAGAUAACAUGUAUUUUUAAAGGAAAAAAAACGGAAUUGAAGCUAUUUUUUCUUGCAUUUCUAAUUGACCUGAGGGACAUUCCGUUUGAAAUGUACUGACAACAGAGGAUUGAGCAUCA	0.278 ratio
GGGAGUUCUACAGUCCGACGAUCUUACUUGAGAUGAACCUUAUGCAUGCGCCUCAAGUUGCAGAUGCUAUUCUAGGCAAUCAGAUGUUCACACAUUAUGACCGGGCUCAUAUUGCUCAACUGUGUGAAAAGGCUGGCCUACUGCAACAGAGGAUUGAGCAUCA	0.137 ratio
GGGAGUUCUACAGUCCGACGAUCACAGCAUUCAUAGUAGAAAGAGACUUUGGUGGAGUCACUAAUGGGAAACCCGAAGAUAAAUUAGGCAUUCGGGGCUCCAACACUUGUGAAGUCCAUUUUGAAAACACCAAGAUACCUGUGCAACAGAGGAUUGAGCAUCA	0.702 ratio
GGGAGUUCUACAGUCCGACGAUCUGUGCAUCUGACGGUCCUGGUCUUUUGCAGUGCGUUUGUGCUGAUGGUUUCCAUGGAUACAAGUGUAUGAGGCAGGGCUCAUUUUCACUGCUUAUGUUCUUUGGGAUUCUGGGAUCCACCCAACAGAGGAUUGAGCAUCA	0.147 ratio
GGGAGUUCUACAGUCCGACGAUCUCCAAAGUUGUCCGUGUUAGAGCAGAUUUGCUUGACGAGUUAAUUAAAUCAGGGCAGUUACUAGGCGUGAAAUUUAUAGCAGAGCUUGGUGUCCCACUGUCACAGGUUAAAAGCAUAUCACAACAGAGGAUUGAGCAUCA	0.371 ratio
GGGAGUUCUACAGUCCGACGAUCUUUUUGAAGGGUGUGAUGCUUGGAAGCAUCUUCUGUGCCUUGAUCACUAUGCUAGGCCACAUUAGGAUUGGAAACAGAAUGCACCACCAUGAGCAUCACCAUCUGCAAGCCCCUAACAAACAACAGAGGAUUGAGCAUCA	0.112 ratio
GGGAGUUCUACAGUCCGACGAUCCAUUGAAGAUGAUGAUGAUGGAGAAUUAGCCCUGUGGUCUCCUGAAGUCAAGACUGUGGAGCUGGUGAAAGACUGCAAAGGCUUAGGAUUCAGUAUUUUGGAUUAUCAGGACCCCCUGGACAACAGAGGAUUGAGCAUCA	0.827 ratio

Block 6
Target: Interferon regulatory factor 3, full length, phosphomimetic (IRF3, Homo sapiens, UniProt Q14653, residues 1-427, S386D/S396D/S398D/S402D/T404D/S405D)
Method: protein-binding microarray
Molecule type: double-stranded DNA, one strand shown
Medium: in vitro
Concentration: 2540 nM top
Notes: 60-bp whole probe
Added: salmon DNA 0.4 mg/ml
Baseline: random background probes
Direction: higher = stronger binding
All sequences stand within: GCCTAGCAC … GTCTTGATTCGCTTGACGCTGCTG
Target sequence (chain): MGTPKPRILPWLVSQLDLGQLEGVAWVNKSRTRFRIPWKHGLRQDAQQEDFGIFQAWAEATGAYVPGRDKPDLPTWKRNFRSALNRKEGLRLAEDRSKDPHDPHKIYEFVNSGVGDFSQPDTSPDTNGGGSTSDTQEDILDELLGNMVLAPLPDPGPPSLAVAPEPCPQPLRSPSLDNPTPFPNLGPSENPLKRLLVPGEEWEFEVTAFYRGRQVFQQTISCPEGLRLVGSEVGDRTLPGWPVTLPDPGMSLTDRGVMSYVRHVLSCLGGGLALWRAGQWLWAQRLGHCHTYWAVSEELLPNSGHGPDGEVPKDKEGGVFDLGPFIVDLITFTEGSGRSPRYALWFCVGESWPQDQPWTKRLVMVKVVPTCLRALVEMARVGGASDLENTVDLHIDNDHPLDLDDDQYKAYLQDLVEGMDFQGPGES
Strand	fitted relative affinity
AAAGTTATCACTTCCAAAGTGTGCTAG	2 z-score
TTAGGTTTCCTTCGCCTTTAGTGCTAG	2.98 z-score
TCAGAGCTCCTCCTTCTCACTGTGCTA	0.172 z-score
TAAGAACTGAGTATCGATTAGTGCTAG	0.131 z-score
GACGGTGTCGGACTGGGGACGTGCTAG	0.638 z-score
AATAAAATGAATATTAGAAGGTGCTAG	-0.0207 z-score
GCCGGACTGGGGTTTCGGGACGTGCTA	0.981 z-score
GTCGGTATCCTTATCCTGACGTGCTAG	6.45 z-score
GACGGTTTCGGTATCGTGACGTGCTAG	8.07 z-score
TTAGGACTGGGACTAGGTTAGTGCTAG	-0.734 z-score
GACGATCTCATTATCGAGACGTGCTAG	1.02 z-score
TTAGGAATCGACTATCGGTTAGTGCTA	-0.09 z-score
GACGGTATAGGTATCGGGACGTGCTAG	0.537 z-score
GACGGTCTCCTTCTCATGACGTGCTAG	4.08 z-score
TTAGGTCACGGTATCGGTTAGTGCTAG	1.57 z-score
TTAGGACTGGGATTTCGGTTAGTGCTA	0.373 z-score
GACGATATCAGACTGGAGAGGTGCTAG	0.144 z-score
GACGGTTTCCAACTGCTGACGTGCTAG	4.75 z-score
GACGATACCGGGTTTCGAGACGTGCTA	0.739 z-score
GACGAACTGCGACTGGAGACGTGCTAG	-0.38 z-score
AACGATATCAGTATCGAGACGTGCTAG	1.28 z-score
TTAGATTTTAGTTCCGATTAGTGCTAG	2.2 z-score
GAAGCCAGCTCTTTCGTTACGTGCTAG	0.199 z-score
CCTTCCATCACTTTCCACTTGTGCTAG	2.65 z-score
TTAGGTCTTGGTATCGGTTAGTGCTAG	1.41 z-score

Repeated from above (block 3):
Strand	E-score
ATTACTAC	-0.0473
TGAGTCCA	-0.0759
ACGCTTCG	0.16
CGACATCA	-0.0267
ACATTGGA	-0.0104
ACTATTCA	-0.0646
GTCCCTGA	-0.239
AGAGCTCC	-0.0512
TGCCCTAA	-0.146
